Measured values from different studies.
Numbered parts are unrelated; each lists some results of a single study.

Series 1
Target: Histone acetyltransferase KAT6A, winged helix 2, GST fusion (KAT6A, Homo sapiens, UniProt Q92794, residues 85-181)
Method: protein binding microarray
Molecule type: double-stranded DNA, one strand shown
Medium: in vitro
Tested at: not given
Notes: 8-mer, flanks averaged, mean of 2 arrays, mostly near background
Reference: not given
Reading: higher = stronger binding
Residues (chain): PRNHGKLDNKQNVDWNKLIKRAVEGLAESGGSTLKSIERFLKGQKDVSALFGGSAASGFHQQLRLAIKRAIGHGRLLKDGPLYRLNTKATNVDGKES
For `AACCATAC`, the E-score was -0.0282.
`AGCAGTTG` has an E-score of -0.0177.
`AAACTCGT` gave an E-score of -0.036.
`AACAGCGT` gave an E-score of -0.0882.
`GATCAGCA` has an E-score of 0.108.
With `TCCTTGAA` the E-score was -0.196.
With `AGCGACAC` the E-score was 0.109.

Series 2
Target: Fragile X messenger ribonucleoprotein 1, C-terminal low-complexity region (Fmr1, Mus musculus, UniProt P35922)
Method: RNA Bind-n-Seq
Molecule type: RNA
Medium: in vitro
Tested at: 200 nM
Notes: whole 134-nt RNA, ends assumed
Together with: 150 mM LiCl
Reference: input library
Reading: higher = stronger binding
Each molecule: 7-deaza-guanosine replaces G
Constant ends, left off below: GGGAGUUCUACAGUCCGACGAUC … UGGAAUUCUCGGGUGUCAAGG
With `CUCAAGUCCUGUGCUACACAUCGUAUGUACCGAAUCGGAGGAAAGGAAAAAGGAAAGUAUUAUGUUACGCCGUUCGGAUCUGCACUUCCA` the log2 enrichment was -1.02.
`CUCAAGUCCUGUGCUACACAUCGUAUGUACCGAAUCGGGGCGGCGGGGCGGGGAAAGUAUUAUGUUACGCCGUUCGGAUCUGCACUUCCA` gave a log2 enrichment of -1.15.
The log2 enrichment of `UGGCCCUGGUGGCAUGCGGGGAGGAAGAGGUGGCCUCAUGGAUCGUGGUGGUCACGGUGGAAUGUUCAGAGGUGGCCGUGGUGGAGACAG` is reported as -0.548.
`UCCUCAAGUCCUGUGCUACACAUCGUAUGUACCGAAUCGGCGGGGCGGCGGGAAAGUAUUAUGUUACGCCGUUCGGAUCUGCACUUCCAG` has a log2 enrichment of 1.13.
With `ACCAUGCAGGUGGGCAUCUUUGGGAAGUGGGGCAAGGGGGGGAUAGGGAGGGGGGUAACACUUUGGGAACACGUGGUCCCAGGUCGUUUC` the log2 enrichment was 1.09.

Series 3
Target: Sal-like protein 4, full length isoform A (SALL4, Homo sapiens, UniProt Q9UJQ4, residues 1-1053)
Chain of UniProt Q9UJQ4 (whole entry, looked up): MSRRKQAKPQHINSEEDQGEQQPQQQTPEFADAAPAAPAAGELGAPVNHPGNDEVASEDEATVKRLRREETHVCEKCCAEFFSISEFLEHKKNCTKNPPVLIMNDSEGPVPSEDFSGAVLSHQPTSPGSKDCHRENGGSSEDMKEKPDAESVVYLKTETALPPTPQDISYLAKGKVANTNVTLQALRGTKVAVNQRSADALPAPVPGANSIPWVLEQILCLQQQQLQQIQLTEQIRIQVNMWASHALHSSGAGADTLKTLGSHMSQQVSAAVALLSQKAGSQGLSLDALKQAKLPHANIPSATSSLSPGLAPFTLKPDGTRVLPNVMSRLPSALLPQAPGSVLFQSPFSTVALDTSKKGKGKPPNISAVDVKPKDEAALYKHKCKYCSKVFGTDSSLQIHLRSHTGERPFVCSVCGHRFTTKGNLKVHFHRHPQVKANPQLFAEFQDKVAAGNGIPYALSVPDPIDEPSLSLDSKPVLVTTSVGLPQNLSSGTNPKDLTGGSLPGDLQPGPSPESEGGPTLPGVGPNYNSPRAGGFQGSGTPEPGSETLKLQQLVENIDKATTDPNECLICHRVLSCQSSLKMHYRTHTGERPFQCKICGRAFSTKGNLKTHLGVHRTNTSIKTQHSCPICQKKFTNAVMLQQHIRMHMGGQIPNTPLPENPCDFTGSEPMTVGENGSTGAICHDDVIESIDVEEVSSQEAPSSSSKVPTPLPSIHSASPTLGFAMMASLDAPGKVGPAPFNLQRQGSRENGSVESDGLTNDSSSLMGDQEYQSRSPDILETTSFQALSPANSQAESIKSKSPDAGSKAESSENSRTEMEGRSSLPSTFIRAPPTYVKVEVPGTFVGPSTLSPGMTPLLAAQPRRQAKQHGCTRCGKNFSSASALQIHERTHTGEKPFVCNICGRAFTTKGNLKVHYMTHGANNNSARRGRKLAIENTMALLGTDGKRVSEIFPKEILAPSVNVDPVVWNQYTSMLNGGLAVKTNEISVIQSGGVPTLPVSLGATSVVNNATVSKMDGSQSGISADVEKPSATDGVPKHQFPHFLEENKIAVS
Method: universal PBM
Molecule type: double-stranded DNA, one strand shown
Medium: in vitro
Tested at: 600 nM
Notes: 8-mer, flanks averaged, mean of replicates
Reading: higher = stronger binding
For `CGCTTTTA`, the E-score was 0.163.
The E-score of `GATATCCA` is reported as 0.171.
The E-score of `ATGGGGGG` is reported as -0.275.
With `ATCCCTAC` the E-score was 0.0329.
The E-score of `CGCGACCG` is reported as -0.302.
For `AGAACGGA`, the E-score was -0.0233.
`CTAATAAA` has an E-score of 0.335.

Mixed results
With `PhoQ, residues 284 288 289 292 302 303 SSLVEF` the fold induction was 9.13 (PhoP, residues 12 14 15 18 19 SMASL (Escherichia coli, UniProt P23836); Sort-seq, measured: YFP reporter; E. coli; PhoQ-PhoP variant library, together with: 10 µM Mg2+; reference: high Mg2+ state, higher = stronger signaling).
